Experimental data pooled from the literature.
Lines come from different studies, so protocols differ. Several values in a cell are separate wells, animals, samples, runs or records. Numbers after ± are the reported error.
CatSper channel complex: CatSper channel complex (Homo sapiens, UniProt Q7RTX7+Q86XQ3+Q8NEC5+Q96P56)
Sequence of UniProt Q7RTX7 (whole entry, looked up): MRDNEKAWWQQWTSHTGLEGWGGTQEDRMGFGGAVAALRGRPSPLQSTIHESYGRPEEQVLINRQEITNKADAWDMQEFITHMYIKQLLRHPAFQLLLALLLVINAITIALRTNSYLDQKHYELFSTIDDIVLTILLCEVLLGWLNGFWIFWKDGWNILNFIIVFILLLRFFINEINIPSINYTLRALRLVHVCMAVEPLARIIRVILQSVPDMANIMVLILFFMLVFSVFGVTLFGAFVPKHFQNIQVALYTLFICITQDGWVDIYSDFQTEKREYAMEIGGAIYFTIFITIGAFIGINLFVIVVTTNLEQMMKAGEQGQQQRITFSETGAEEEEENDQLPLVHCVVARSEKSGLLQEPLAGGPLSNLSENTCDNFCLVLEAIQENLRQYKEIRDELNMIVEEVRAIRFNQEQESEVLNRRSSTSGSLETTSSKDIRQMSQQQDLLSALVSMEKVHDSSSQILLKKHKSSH
Sequence of UniProt Q8NEC5 (whole entry, looked up): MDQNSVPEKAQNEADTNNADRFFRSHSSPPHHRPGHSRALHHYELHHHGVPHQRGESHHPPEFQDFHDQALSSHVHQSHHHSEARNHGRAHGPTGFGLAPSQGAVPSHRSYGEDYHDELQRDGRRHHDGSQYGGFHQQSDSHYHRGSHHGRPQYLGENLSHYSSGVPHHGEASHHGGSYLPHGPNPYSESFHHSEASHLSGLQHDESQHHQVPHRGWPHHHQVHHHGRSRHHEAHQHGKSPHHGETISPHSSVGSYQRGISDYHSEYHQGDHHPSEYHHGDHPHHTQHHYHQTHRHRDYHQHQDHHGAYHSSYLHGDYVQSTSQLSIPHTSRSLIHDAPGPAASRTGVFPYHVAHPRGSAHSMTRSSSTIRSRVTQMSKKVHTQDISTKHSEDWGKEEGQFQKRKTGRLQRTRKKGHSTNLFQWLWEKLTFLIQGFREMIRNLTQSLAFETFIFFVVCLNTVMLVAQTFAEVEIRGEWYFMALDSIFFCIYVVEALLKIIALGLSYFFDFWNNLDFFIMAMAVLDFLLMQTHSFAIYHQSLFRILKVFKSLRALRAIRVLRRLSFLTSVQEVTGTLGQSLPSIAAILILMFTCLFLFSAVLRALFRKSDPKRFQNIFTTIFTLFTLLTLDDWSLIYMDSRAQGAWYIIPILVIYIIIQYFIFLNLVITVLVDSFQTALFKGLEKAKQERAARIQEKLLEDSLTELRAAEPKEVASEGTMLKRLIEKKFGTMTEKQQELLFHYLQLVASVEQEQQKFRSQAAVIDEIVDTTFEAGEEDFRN
Sequence of UniProt Q96P56 (whole entry, looked up): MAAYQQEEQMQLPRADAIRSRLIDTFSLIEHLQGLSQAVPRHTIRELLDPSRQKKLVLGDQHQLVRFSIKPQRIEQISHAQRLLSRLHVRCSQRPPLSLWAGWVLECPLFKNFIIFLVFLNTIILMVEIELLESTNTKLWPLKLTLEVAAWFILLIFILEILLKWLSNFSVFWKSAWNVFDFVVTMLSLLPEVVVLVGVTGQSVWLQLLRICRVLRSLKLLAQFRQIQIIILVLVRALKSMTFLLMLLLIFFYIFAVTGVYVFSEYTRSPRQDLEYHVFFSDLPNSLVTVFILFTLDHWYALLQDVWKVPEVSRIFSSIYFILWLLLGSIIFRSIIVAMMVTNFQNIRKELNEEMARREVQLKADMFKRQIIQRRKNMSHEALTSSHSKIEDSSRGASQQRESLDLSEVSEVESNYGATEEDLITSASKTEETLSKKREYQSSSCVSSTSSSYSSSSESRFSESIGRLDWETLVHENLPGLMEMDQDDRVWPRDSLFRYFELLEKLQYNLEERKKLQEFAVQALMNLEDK
Sequence of UniProt Q86XQ3 (whole entry, looked up): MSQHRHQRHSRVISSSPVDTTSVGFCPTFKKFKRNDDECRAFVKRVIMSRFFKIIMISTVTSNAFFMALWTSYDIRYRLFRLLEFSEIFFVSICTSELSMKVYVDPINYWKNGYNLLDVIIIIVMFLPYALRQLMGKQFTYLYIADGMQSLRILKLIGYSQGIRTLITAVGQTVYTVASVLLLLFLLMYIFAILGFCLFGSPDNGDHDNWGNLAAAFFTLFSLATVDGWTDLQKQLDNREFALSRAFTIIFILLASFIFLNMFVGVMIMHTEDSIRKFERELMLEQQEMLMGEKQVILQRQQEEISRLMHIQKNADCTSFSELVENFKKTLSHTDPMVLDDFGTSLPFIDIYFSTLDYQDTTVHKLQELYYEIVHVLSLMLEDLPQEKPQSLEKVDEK
CHRM2: Muscarinic acetylcholine receptor M2 (CHRM2, Homo sapiens, UniProt P08172)
Sequence of UniProt P08172 (whole entry, looked up): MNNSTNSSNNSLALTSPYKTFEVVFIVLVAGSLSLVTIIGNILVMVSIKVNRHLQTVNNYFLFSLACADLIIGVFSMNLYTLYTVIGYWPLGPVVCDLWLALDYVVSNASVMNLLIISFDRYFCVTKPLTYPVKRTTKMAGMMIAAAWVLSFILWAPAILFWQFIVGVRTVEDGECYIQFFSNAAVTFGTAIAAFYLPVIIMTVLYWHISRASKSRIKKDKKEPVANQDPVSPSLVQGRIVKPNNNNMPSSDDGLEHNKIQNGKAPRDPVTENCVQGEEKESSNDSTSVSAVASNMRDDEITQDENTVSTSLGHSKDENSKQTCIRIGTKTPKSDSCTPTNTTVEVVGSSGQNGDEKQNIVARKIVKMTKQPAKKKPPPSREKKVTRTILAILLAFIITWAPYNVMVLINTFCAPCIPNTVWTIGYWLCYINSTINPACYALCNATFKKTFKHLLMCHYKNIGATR
Sequence of UniProt P28065 (whole entry, looked up): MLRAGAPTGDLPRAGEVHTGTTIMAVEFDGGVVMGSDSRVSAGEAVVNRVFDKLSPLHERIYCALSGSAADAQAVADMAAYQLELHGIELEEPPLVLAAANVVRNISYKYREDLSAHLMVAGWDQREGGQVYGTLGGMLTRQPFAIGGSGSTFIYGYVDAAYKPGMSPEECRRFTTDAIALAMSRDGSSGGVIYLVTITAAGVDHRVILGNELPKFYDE
Sequence of UniProt Q582G4 (whole entry, looked up): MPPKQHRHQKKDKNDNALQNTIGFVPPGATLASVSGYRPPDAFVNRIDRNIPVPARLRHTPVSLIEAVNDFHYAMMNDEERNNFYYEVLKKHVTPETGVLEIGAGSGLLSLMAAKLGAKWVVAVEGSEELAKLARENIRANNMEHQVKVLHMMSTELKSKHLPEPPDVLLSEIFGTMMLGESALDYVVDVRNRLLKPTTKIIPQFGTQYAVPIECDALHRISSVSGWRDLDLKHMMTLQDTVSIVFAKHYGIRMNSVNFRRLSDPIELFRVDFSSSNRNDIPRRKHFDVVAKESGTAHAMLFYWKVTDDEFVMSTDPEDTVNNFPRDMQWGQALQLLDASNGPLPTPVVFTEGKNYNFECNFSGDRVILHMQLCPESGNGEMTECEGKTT
Sequence of UniProt P32239 (whole entry, looked up): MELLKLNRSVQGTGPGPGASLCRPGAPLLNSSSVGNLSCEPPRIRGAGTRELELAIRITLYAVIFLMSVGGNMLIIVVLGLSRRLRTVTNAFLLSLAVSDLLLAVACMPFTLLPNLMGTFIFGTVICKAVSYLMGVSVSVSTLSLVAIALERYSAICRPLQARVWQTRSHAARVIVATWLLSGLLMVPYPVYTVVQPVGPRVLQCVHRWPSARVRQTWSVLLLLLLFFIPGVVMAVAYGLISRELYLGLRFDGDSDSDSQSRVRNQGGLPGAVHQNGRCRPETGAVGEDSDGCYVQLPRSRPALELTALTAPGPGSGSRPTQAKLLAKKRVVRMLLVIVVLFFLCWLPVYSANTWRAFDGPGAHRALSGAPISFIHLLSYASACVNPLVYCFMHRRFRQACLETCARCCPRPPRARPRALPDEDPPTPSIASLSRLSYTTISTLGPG
Sequence of UniProt P49841 (whole entry, looked up): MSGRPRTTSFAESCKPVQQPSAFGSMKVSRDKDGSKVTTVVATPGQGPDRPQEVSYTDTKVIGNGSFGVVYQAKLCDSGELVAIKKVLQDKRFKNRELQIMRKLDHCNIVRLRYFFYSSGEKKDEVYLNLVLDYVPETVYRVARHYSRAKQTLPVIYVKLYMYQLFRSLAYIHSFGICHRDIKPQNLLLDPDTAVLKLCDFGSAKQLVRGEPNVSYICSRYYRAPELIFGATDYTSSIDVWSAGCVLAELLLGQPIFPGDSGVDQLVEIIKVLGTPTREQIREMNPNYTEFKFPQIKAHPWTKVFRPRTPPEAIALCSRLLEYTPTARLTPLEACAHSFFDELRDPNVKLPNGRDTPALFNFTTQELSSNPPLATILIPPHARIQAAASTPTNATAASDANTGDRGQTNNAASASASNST
Sequence of UniProt P05979 (whole entry, looked up): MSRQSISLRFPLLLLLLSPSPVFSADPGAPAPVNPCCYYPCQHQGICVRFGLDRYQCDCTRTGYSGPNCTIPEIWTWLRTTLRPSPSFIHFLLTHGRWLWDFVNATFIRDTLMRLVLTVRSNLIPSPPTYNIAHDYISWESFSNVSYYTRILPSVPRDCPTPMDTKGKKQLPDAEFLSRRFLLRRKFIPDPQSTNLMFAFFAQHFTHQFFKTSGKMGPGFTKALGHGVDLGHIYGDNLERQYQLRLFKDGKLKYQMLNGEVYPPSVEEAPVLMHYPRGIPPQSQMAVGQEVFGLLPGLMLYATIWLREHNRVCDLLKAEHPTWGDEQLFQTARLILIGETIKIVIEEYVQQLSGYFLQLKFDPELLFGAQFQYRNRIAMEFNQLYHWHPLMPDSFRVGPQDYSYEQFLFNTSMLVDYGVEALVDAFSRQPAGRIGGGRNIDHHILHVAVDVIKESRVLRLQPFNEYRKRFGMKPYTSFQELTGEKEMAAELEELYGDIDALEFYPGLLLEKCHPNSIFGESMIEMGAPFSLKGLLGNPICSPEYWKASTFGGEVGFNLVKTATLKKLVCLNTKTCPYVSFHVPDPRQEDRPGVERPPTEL
Sequence of UniProt Q9HT15 (whole entry, looked up): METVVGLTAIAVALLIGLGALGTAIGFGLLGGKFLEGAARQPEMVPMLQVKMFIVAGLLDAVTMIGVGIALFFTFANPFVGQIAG

`c1ccc(-c2cc3ccccc3o/c2=N\c2cccc3ccccc23)cc1` has an IC50 of 12.6 nM (Prostaglandin G/H synthase 1 (PTGS1, Ovis aries, UniProt P05979); enzyme activity, inhibitor).
With `N=C(N)NCCC[C@@H]1NC(=O)[C@H](Cc2c[nH]c3ccccc23)NC(=O)[C@@H](CC2CCCCC2)NC(=O)[C@@H]2CCCN2C(=O)[C@@H](NC(=O)CCc2ccccc2)CCCNC1=O` the MRT(0-last) was 19.7 min (C57BL/6J mouse, plasma plasma; intravenous, 1 mg/kg single dose).
For `O=C(O)c1ccc(Cn2sc3ccccc3c2=O)cc1`, the IC50 was 4600 nM (Histone deacetylase 9 (HDAC9, Homo sapiens, UniProt Q9UKV0); enzyme activity, inhibitor).
`O=C(Nc1cccc(C(F)(F)F)c1)N1CCN(c2ccc(F)cc2)CC1` has an IC50 of 8900 ± 400 nM (CatSper channel complex; calcium influx, inhibitor, FLIPR; human sperm; together with: 3 µM progesterone).
`CCCCCCOc1ccc(C(=O)OCCN2CC=CCC2)cc1` gave a Kb of 1860 nM (CHRM2; inositol phosphate accumulation, antagonist, Schild analysis; CHO co-expressing G15; together with: carbachol).
For `O=C1C2=C(Nc3ccccc3SC2c2ccc(O)c(O)c2)c2ccccc21` (racemic), the IC50 was over 20000 nM (Dihydroorotate dehydrogenase (quinone), mitochondrial (PFF0160c, Plasmodium falciparum, UniProt Q08210); enzyme activity, inhibitor, absorbance).
The tissue uptake of `CCCC[C@H](NC(=O)CNC(=O)CNC(=O)CN1CCN(CC(=O)O)CCN(CC(=O)O)CCN(CC(=O)O)CC1)C(=O)N[C@H]1CC(=O)NCCCC[C@@H](C(N)=O)NC(=O)[C@H](Cc2c[nH]c3ccccc23)NC(=O)[C@H](CCCNC(=N)N)NC(=O)[C@@H](Cc2ccccc2)NC(=O)[C@H](Cc2c[nH]cn2)NC1=O` [lutetium-177 labelled] is reported as 1.66 ± 0.34 %ID (C57 mouse, female, intestines; intravenous, 0.037 MBq, 0.5 h).
The IC50 of `C=C(CC(O)C(=O)O)C(=O)O` (racemic) is reported as 8800 nM (Methylcytosine dioxygenase TET3 (TET3, Homo sapiens, UniProt O43151); enzyme activity, 5hmC ELISA; recombinant protein).
`CN1C(=O)[C@@H](Cc2ccc(O)cc2)NC(=O)CNC(=O)[C@H](Cc2ccc3ccccc3c2)NC(=O)[C@H](CCCNC(=N)N)NC(=O)[C@H]1CCCNC(=O)c1ccc(CNC(=O)CN2CCN(CC(=O)O)CCN(CC(=O)O)CCN(CC(=O)O)CC2)cc1` [gallium-68 labelled] — result for “absorbed dose coefficient”: 0.0128 mGy/MBq (extrapolated to adult male; C57BL/6 mice, small intestine).
The IC50 of `CN(C(=O)c1ccn2ncc(-c3ccc(C(N)=O)cc3)c2c1)c1ccc(C#N)cn1` is reported as over 10000 nM (Glycogen synthase kinase-3 beta (GSK3B, Homo sapiens, UniProt P49841); enzyme activity, inhibitor).
`C#Cc1ccc2c(=O)[nH]nc(Cc3ccc(F)c(C(=O)N4CCN(C(=O)C=C)CC4)c3)c2c1` gave an IC50 of 925 nM (Poly [ADP-ribose] polymerase 1 (PARP1, Homo sapiens, UniProt P09874); enzyme activity, inhibitor).
With `CCC(=O)NC1CN(CCCCC2CCN(CC(=O)N3c4ccccc4NC(=O)c4ccccc43)CC2)CCN(CCCOc2nsnc2C2=CCCN(C)C2)C1` (centres unmarked) the Kb was 66.1 nM (CHRM2; inositol phosphate, antagonist).
For `Cc1cc(C)c(S(=O)(=O)N(CC(=O)O)c2ccc(Nc3ccnc(N4CCCC4)n3)cc2)c(C)c1`, the IC50 was over 100000 nM (Heat shock protein HSP 90-alpha (HSP90AA1, Homo sapiens, UniProt P07900); ATPase activity, inhibitor).
`CCC(NC(=O)C(CC(C)C)NC(=O)CCc1ccc(C#N)cc1)C(=O)C(=O)NCc1cc(OC)cc(OC)c1` (centres unmarked) gave an IC50 of 984 nM (Calpain-1 catalytic subunit (Capn1, Mus musculus, UniProt O35350); enzyme activity, inhibitor; mouse pons-cerebellum membranes; together with: calcium 20 µM).
For `[64Cu+2].c1ccc(CNCc2ccc(CN3CCCN4CCNCCCN(CC4)CC3)cc2)nc1`, the tissue uptake was 1.23 ± 0.04 %ID/g (CXCR4; NOD/SCID mouse, U87 and U87-stb-CXCR4 xenografts, blood; iv, 90 min, ex vivo, together with: AMD3465 25 mg/kg sc before tracer).
`N=C(N)NCCC[C@H](NC(=O)[C@H](CC(=O)O)NC(=O)[C@@H]1CSCC(=O)NCC(=O)N[C@@H](Cc2c[nH]cn2)C(=O)N[C@H](Cc2ccccc2)C(=O)N[C@@H](CCCNC(=N)N)C(=O)N[C@@H](Cc2c[nH]c3ccccc23)C(=O)N1)C(=O)N[C@@H](Cc1ccccc1)C(=O)NCC(N)=O` gave an IC50 of 510 nM (Melanocortin receptor 5 (MC5R, Homo sapiens, UniProt P33032); ligand displacement, radioligand).
With `O=C(O[C@H]1Cc2c(O)cc(O)cc2O[C@@H]1c1ccc(O)cc1)c1cc(O)c(O)c(O)c1` the IC50 was 59400 nM (Sucrase-isomaltase, intestinal (Si, Rattus norvegicus, UniProt P23739); enzyme activity, inhibitor).
`C[C@@H]1CCN(c2nc3cc(Cl)ccc3o2)CCN1S(=O)(=O)c1ccc2c(c1)OCCO2` has an IC50 of 1200 nM (Orexin receptor type 2 (HCRTR2, Homo sapiens, UniProt O43614); calcium signal, antagonist, fluorescence).
For `CCCC[C@H](NC(C)=O)C(=O)NCC(=O)N[C@@H](Cc1c[nH]c2ccccc12)C(=O)N[C@@H](CCCC)C(=O)N[C@@H](CC(=O)O)C(=O)N[C@@H](Cc1ccccc1)C(N)=O`, the IC50 was 26 nM (Gastrin/cholecystokinin type B receptor (CCKBR, Homo sapiens, UniProt P32239); ligand displacement).
For `N=C(NCCCC(N)C(N)=O)NCCSCC1OC(n2cnc3c(N)ncnc32)C(O)C1O` (centres unmarked), the IC50 was 2800 ± 200 nM (Protein arginine N-methyltransferase 7 (PRMT7, Trypanosoma brucei brucei, UniProt Q582G4); enzyme activity, inhibitor, SAHH-coupled fluorescence; together with: SAM and peptide at Km).
For `O=Cc1c(O)ccc2ccccc12`, “log2 fold change” read -2.93 (HUVEC; RNA sequencing, measured: CAV1; 75 µM, 24 h; reference: DMSO).
`O=C(CCCCCCNCc1ccc(F)cc1)NO` gave an IC50 of 1700 nM (Histone deacetylase 8 (HDAC8, Homo sapiens, UniProt Q9BY41); enzyme activity, inhibitor, fluorescence).
For `[64Cu+2].c1cnc(CNCc2ccc(CN3CCCN4CCNCCCN(CC4)CC3)cc2)nc1`, the tissue uptake was 2.85 ± 0.28 %ID/g (CXCR4; NOD/SCID mouse, U87 and U87-stb-CXCR4 xenografts, stomach; iv, 60 min, ex vivo).
`Cc1cccc(CN2CCC(C(=O)Nc3ccc(-c4nc(-c5ccccc5)cs4)cc3)CC2)c1` gave an IC50 of 301 nM (Bifunctional epoxide hydrolase 2 (EPHX2, Homo sapiens, UniProt P34913); enzyme activity, inhibitor, fluorescence; pH 7.4, with preincubation).
For `CCN1CCC(CCNCc2cc3ccccc3nc2SCc2ccccc2)CC1`, the IC50 was 1240 nM (atpB/atpE (Pseudomonas aeruginosa, UniProt Q9HT14+Q9HT15); inhibitor; Pseudomonas aeruginosa, inner membrane vesicles).
With `O=C(Nc1ccc(-c2nc(-c3ccccc3)cs2)cc1)C1CCN(Cc2cccc([N+](=O)[O-])c2)CC1` the IC50 was 286 nM (Fatty-acid amide hydrolase 1 (FAAH, Homo sapiens, UniProt O00519); enzyme activity, inhibitor, fluorescence; pH 8, with preincubation).
For `OC(/C=C/c1ccccn1)c1nc2ccccc2[nH]1` (centres unmarked), the IC50 was over 100000 nM (Cathepsin K (CTSK, Homo sapiens, UniProt P43235); enzyme activity, inhibitor, fluorescence).
For `CCCCCCOc1ccc(C(=O)OCC[N+]2(C)CC=CCC2)cc1` (centres unmarked), the Kb was 2000 nM (CHRM2; inositol phosphate accumulation, antagonist, Schild analysis; CHO co-expressing G15; together with: carbachol).
`CC12CC(c3ccc(C(=O)CO)cc3)C3=C4CCC(=O)C=C4CCC3C1CCC2(O)C(F)(F)C(F)(F)F` (centres unmarked) has an IC50 of 0.14 nM (Progesterone receptor (PGR, Homo sapiens, UniProt P06401); reporter gene, antagonist, luciferase).
The IC50 of `CN(C)CCCn1c(=N)n(CC(O)c2ccc(Br)cc2)c2ccccc21` (centres unmarked) is reported as 12000 ± 2000 nM (CatSper channel complex; calcium influx, inhibitor, FLIPR; human sperm; together with: 3 µM progesterone).
`CN(C)CCNC(=O)c1cccc2c(NCCCCc3c(N)nc(N)nc3N)c3ccccc3nc12` gave a Kd of 103000 nM and > 100000 nM (RNA with G–G mismatch; binding, ITC; 25 °C, 1).
`CC(C)NC(=O)[C@H](CCc1ccccc1)NC(=O)[C@H](CC(=O)NCC(C)(C)C)NC(=O)CCc1ccccc1` has an IC50 of over 100000 nM (Proteasome subunit beta type-9 / Proteasome subunit beta type-10 (Homo sapiens, UniProt P28065+P40306); inhibitor).
